Experimental data pooled from the literature.
Parts stem from different laboratories: compare values within a part only.

Study 1
Target: Hepatocyte nuclear factor 3-alpha (Foxa1, Mus musculus, UniProt P35582, residues 1-468, full length assumed)
Sequence of UniProt P35582 (whole entry, looked up): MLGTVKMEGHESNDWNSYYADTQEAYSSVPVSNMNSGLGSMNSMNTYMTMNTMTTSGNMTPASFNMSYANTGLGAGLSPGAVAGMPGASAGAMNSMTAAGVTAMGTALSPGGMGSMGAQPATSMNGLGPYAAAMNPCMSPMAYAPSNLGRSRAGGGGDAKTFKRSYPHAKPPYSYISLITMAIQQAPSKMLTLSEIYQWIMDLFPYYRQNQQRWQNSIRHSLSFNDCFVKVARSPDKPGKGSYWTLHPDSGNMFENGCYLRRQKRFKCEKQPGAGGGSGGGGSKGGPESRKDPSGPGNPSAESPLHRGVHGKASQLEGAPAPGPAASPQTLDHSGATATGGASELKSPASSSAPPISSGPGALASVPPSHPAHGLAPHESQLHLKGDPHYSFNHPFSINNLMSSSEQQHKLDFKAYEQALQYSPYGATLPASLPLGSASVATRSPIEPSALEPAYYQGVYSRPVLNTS
Method: EMSA with sequencing
Form: double-stranded DNA, one strand shown
Sample: in vitro
Concentration: 10 and 20 nM
Notes: whole designed probe, mean of two concentrations, ends assumed
Reference: negative control set to 0
Direction: higher = stronger binding
All sequences stand within: GTGAGCGGTGCCCATTGATGGGGAAC … TTTCACTGGGATCGTGGGGAC
Sequence	normalised bound fraction [ratio]
ATCTTCCCCCTCTTCCTTGCCCCACCAGCTCACCGGTCTGTCCTATTTGCAGATAGGAAAATAAATAAAGCCGGCATTCGTTAACCCTCTTCTGGCGCAAACTGCTGTTTGCTCTGGATGAATCATGGTCCTTTGGCGACGCCAGGCTCCGGGAGAGCAAAGCACCGTGTCAGGGCCATGATCCGGGGTGGCC	0.329
TCAGAGCTGTCAGCCTACTTGGCAGGCGACCTGACACTTTAGCTGAGTCACATTTAAAAACAATTTCCTAAGAAGGGTGAGGTCACCATGAGAGCAATCTCCACCAGGCCACAGCTTAATTACTAAGTTGCCAACCTTTAGCTTTCCCCAGAGCCCCCTTATAAAACATTCAGATATCTACTGCCCAACAGTG	-0.0705
GGAATAAGGATTGTGACAGTTTTACTGTGCTTATCATTTGTCATTCCAGTGGCATTTCATTGATCCAAAGCCTATCAATAATTCATCTGACTTGTTTACTTTGATAGCCCCAGACACACCTAAAGAGAGATCCTTTCATTTTTTTGAGATTCATGGAATCCAACAAATGATCATTCAGCAGAGCTATGGCAAC	0.419
CAGTGCAGGTGACTAAGGATGACTAAGGACAGAGCAGGTGACTAAGGATGACTAAGGACTCTAAATATGTGAGTATAAAGGCTAGAAGGGGGTTGTTTACTGAAACTAGGGCAAGGAGGTGTAAAGAATGAGGAAGTTAAACTTTAAAATGGAGAACAAAGTATAAGAAAGCTGAACATACTGACATACTGGT	0.0441
TCGCATATAACTCTTCTACAGAGGAATCTAGACTTGGTGAATGCACCATTGTTCTCCGAAGGGCCCCTCCACCTAAAACGGGGCAGGAACCAATGTAAACACCGGCGTTAGTGGGTCAGGTAAGTGATCCTGAGGCATAGGGGGTGAGGTAGCGTGAGTTAGCATCAGGCTCATATAGAGGACGCAATAAAGA	0.296
ACTGGGTGGACTCCGAGTGCCGCTGCCCAGTGTCTGCCTCCCTTCCTTTCGCTGGGGATGGAGAGCAGTGCGATGCTGGCCCCCGGGATCCCTGTTTACACAGCGTGATGGCCAACGCCACCCTTCCCAGAGAGACTTACATCATGGGGCCTGAGCTGTGACCCTTTTAGAATTATCCACACTTTTTTTTTTT	0.367
GGTTAAAAAAACATACAAGGATCCAATCCCCCCGTTGGAGACACACAGAGCAACAGTAGGAAGGATACATTTCCAGCAAGCTGTGACTCTTTAAGTAAATACGTAGGAGGAAGCAAGTGCAGATTAAAGTACAGTAACTGTGAGGCATATGACTGCAGTCATGTTTATGAGTGACTTATAAAGAGAGATTTCA	0.335
AGACAAAAAATGTAGTTGTTCAACAGCTCAGGGAAGAAAGCCTGAGCTTGCCACAGGAGGAGACAGGGCTAAGGCTGGGGAGTTGGGGGGAGTGTAAATAAAGTAGAGGACTGGGCAGTGCTACAAGAAATATTTAGCATTCCTGGCTTCCCACAAAGGGTAGGTCAAGGAGAGGGAATGAGCAGTTGGGATG	0.235

Study 2
Target: Prothrombin, mature alpha-thrombin (F2, Homo sapiens, UniProt P00734)
Method: aptamer microarray, sandwich
Form: DNA with 2'F-ANA
Sample: in vitro
Concentration: 200 nM
Notes: whole 15-mer aptamer, many near background
Added: Cy3 exosite-II aptamer, 400 nM
Direction: higher = stronger binding
Sequence: GGTTGGTGTGGTTGG
Modification	mean fluorescence intensity [a.u.]
2'F-ANA at 3 9 13 14	560
2'F-ANA at 1 4 5 7 8 10 12 14 15	51.2
2'F-ANA at 1 7 8 10 15	57.1
2'F-ANA at 2 5 6 9 10 11 14	48.4
2'F-ANA at 1 3 6 8 9 10 12 14	64
2'F-ANA at 1 3 5 7 10 11 13 14	61.3
2'F-ANA at 1 3 5 6 7 9 11 14 15	44.1
2'F-ANA at 2 3 4 5 6 9 11 13 14 15	48
2'F-ANA at 1 2 3 4 6 8 10 11 13 14	51.2
2'F-ANA at 6 8 9 10 11 12	172
2'F-ANA at 4 8 10 11 13 15	66.9
2'F-ANA at 2 3 4 6 7 8 11	542
2'F-ANA at 1 2 5 7 8 9 10 14	65.6
2'F-ANA at 2 4 6 7 8 10 11 12 13	85.3
2'F-ANA at 1 2 6 7 8 9 10 12 15	68.9
2'F-ANA at 1 2 4 6 8 9 10 12 13 14 15	64.3
2'F-ANA at 3 4 9 11	620
2'F-ANA at 1 3 4 6 7 8 9 10 14	60.7
2'F-ANA at 1 2 4 8 10	57
2'F-ANA at 6 7 11 14 15	173
2'F-ANA at 2 6 9 12 13 14	136
2'F-ANA at 9 10 13 14 15	99.5
2'F-ANA at 1 2 3 5 6 7 9 12 13 14	82.8
2'F-ANA at 1 5 9 11 12 13 15	67.6
2'F-ANA at 1 2 5 7 10 11 14 15	69.6

Study 3
Target: Interferon regulatory factor 5, full length, phosphomimetic (IRF5, Homo sapiens, UniProt Q13568-2, residues 1-514, K96S/S451D/S453D/S456D/S462D)
Method: protein-binding microarray
Form: double-stranded DNA, one strand shown
Sample: in vitro
Concentration: 250 nM
Notes: 60-bp whole probe
Added: salmon DNA 0.4 mg/ml
Reference: random background probes
Direction: higher = stronger binding
All sequences stand within: GCCTAGCAC … GTCTTGATTCGCTTGACGCTGCTG
Sequence	log fluorescence [z-score]
GACCATCTCAGTCTCGAGACGTGCTAG	-0.0367
TTAGATTCCAGCTTCGATTAGTGCTAG	1.17
TCACTTACCTCACTCGTACTGTGCTAG	0.412
AGTGTCTCCATCAGAGGAGAGTGCTAG	-0.302
GACGGAATCGGGTTTCGGGACGTGCTA	2.69
CAAGGAACTCAGAGATTTAAGTGCTAG	-0.234
TTAGGTATCCTGATCCTTTAGTGCTAG	-0.295
GGGGCTTGGGAGAGGCATCCGTGCTAG	-0.76
TCACCTTTTCTTTACTGACTGTGCTAG	0.789
GACGAACTCAGTATCGAGACGTGCTAG	1.83
TTAGATATCGGGTTTCGATAAGTGCTA	7.18
TTAAGACTGGACTTTCGGTTAGTGCTA	9.83
TTAGGACTGGGTATCTGTTAGTGCTAG	0.127
GACGGTTCCGGTTTGGGGACGTGCTAG	0.857
TTATGTCTCGGTCTCGGTTAGTGCTAG	1.52
GACGGACTGGGTTTCGGGAGGTGCTAG	2.03
GACGATATCAGAATCGAGACGTGCTAG	0.888
GACGATTTCAGTATTGAGACGTGCTAG	1.38
TCAATTTCCATTTTCTAACTGTGCTAG	1.99
TTAGAAGTGAGTATCGATTAGTGCTAG	6.9
GACGGACTGGACTTTCGGGTCGTGCTA	6.03
TTAGGCCTCCTACTGCTTTAGTGCTAG	-0.368
GTTTTTTTCTACTTCTCTTTGTGCTAG	1.82

Study 4
Target: RNA binding protein fox-1 homolog 2, RRM domain, GST-SBP tag (RBFOX2, Homo sapiens, UniProt O43251-10, residues 100-194)
Method: RNA Bind-n-Seq
Form: RNA
Sample: in vitro
Concentration: 365 nM
Notes: natural RNA segment, single round, ends assumed
Reference: no-protein control
Direction: higher = stronger binding
All sequences stand within: GGGAGUUCUACAGUCCGACGAUC … UGGAAUUCUCGGGUGCCAA
Target sequence (chain): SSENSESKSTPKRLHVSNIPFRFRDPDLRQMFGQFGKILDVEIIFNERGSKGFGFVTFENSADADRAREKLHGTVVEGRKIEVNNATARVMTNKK
Sequence	RBNS enrichment (R)
UCCUCACGCUGCAGACGCCCCCUAGAGGAACUUUCCUUCCUUUCCAGCAUUCCCCACAGCACUGCCGGCCAGGGGAGAGGCGGCAGCCCAGCAGAGGGCUCUAUGCACGG	0.797
AUGCUUUGUGGGAGUCUGGGUCGGCACACUGUCAGUACAUCAGGCACAUGGGCCCACUAGGCUGGGGUUUCUGGUUUUGUUUCUGUUGUGUUUUGUUUUGGUUUCUGUAU	1.43
CUCAAAGCAGCCAGCAAUGAGUGCUCUGUUUUGAUCCUUCUUCUUAUUAUGGAAAGGAGUACAGGACCUCUUCAGUCUUCCCCUUACCAGAGGUAGCCUCUGCAAAUGGC	0.261
GGCAGCGCCUGUGCAGACCUCCCUGCAGGCCGCACUGCCAACUGCUGCAUUUGUUGUGUUUUUUAGGUUGCAAUUGGUGAAGUUCACACUUUCAUUGUAAUUUUAGCGUG	0.492
CCUGCUCAAAGUCAAAUACAAACCCAAGAGAAGAAAUGUCUUCUCAAGACUUUGUGUCUAAUGUUUUUCAAACUUCCCAUUAGAUCACUGCUUCAAUACAAAACCAGCAG	0.408
AUUUGUUGUUGUUUUUCCUCAAAAUUACCAAACAAAGCAAAAAAUACCCUUGUUUUUUAUAGUUGAGAUGUCAAGAAGUUAAAUUGAGGCUUAAUGAGCAUAGGUAGCUU	0.483
GCUGAGAUUCCCAUUUCUCUUAAGGAGAAGCCACCCAUGAGAUGUCUUUUCCUUCUCCAUCAUCUUAGAGCCAAGUUAUAUGUUCUUGUCUAAUCCAUGUAGCUUUUUGU	0.474
UUAUGACCCCCUCAUCCUUCUCUUGAACUGGAGAGGGGAAGAAAUGAAAGGCAUGCCCACGUCCGUCACCUCCCCAUCCCCUAGUCCCCACCUUGAACAUCAUGAGCUGU	4.28
UGCAGGACCGAAAGCCAGACUCAGCCCCUUGUCUCCCUGCACCUGUCCCACUUGACAUUUUUUAACUCAUCUUUCAUAAGGAUCCUCUGAAGCCCCCUGUGUGACCUGAG	0.581
CCGGCUAAAGUUGCAGCUGUUGUAUCUGGUUUCUGUGAGUCCUGCACCAAGUUCAGCCCAAAAUGAUAUUCUUUUCAGUCCUGUGGGGGAAGGACCGGCUUUAUCUCAUG	1.23
UUCGAGCUACUUCAUCUGCAUAAGGAAAUCCUCAAUGUAGGUGAGUCAGGUCUGUUCCCCAACUGAAAGGGCUGUAAAAGAAUGGAUUAAUGUUUAGCUCUCACAAAGAG	0.541
UACAGCACAAUGCCAGACAGUUAUGCCGCGUGUAUCCCAGUGGUCUGAGGACAGAUUCAUCCAACUUUAACCCCCAGGAACACUGGAAUGUAGGCUGCCAGAUGGGGGCU	0.615
